Experimental data pooled from the literature.
Numbered parts are unrelated; each lists some results of a single study. Values joined by “and” are separate records of one study, mostly repeats; a detail may differ. Changes are numbered by the printed parent chain.
UniProt P19784, sequence (whole entry, looked up): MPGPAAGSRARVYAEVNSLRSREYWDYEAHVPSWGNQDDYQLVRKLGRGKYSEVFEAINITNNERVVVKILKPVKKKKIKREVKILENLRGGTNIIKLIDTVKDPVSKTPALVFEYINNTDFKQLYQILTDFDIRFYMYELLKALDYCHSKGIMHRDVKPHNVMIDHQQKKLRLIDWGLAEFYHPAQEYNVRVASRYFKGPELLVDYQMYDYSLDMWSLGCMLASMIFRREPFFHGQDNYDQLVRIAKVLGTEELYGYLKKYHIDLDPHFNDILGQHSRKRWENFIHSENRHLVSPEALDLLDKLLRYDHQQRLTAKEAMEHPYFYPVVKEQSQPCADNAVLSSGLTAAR
UniProt Q56UN5, sequence (whole entry, looked up): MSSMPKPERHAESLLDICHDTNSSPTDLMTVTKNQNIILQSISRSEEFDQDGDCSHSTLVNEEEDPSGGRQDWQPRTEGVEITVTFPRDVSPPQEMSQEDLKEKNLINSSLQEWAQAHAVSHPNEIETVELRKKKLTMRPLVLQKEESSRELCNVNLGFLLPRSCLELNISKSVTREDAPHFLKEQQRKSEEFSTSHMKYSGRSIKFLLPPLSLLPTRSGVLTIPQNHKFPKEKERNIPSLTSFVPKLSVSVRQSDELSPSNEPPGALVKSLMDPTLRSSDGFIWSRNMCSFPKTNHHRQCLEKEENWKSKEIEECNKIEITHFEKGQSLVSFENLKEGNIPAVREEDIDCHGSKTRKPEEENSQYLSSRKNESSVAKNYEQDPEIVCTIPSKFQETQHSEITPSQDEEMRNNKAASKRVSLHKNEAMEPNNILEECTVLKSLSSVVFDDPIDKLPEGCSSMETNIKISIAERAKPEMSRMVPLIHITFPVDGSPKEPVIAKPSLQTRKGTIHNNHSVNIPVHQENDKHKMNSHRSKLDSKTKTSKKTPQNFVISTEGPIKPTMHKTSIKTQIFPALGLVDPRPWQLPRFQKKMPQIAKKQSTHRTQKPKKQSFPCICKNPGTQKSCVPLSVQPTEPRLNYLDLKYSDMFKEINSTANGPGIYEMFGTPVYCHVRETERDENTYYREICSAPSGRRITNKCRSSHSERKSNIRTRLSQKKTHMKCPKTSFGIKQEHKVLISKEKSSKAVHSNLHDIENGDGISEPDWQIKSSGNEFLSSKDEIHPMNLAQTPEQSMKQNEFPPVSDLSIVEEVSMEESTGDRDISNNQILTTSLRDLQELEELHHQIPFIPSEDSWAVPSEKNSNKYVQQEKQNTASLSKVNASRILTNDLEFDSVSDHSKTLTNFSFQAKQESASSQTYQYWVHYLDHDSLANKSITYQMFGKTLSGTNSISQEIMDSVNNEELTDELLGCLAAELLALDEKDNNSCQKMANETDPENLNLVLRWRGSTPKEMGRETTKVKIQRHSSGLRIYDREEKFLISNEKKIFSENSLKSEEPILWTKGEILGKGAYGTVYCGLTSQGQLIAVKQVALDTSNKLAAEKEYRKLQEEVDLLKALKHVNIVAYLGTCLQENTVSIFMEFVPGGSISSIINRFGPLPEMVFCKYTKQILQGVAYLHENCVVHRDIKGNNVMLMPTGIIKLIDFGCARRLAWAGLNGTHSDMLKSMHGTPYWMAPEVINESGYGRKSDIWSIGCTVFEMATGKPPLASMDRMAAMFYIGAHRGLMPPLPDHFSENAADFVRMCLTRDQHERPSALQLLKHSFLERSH
UniProt O95382, sequence (whole entry, looked up): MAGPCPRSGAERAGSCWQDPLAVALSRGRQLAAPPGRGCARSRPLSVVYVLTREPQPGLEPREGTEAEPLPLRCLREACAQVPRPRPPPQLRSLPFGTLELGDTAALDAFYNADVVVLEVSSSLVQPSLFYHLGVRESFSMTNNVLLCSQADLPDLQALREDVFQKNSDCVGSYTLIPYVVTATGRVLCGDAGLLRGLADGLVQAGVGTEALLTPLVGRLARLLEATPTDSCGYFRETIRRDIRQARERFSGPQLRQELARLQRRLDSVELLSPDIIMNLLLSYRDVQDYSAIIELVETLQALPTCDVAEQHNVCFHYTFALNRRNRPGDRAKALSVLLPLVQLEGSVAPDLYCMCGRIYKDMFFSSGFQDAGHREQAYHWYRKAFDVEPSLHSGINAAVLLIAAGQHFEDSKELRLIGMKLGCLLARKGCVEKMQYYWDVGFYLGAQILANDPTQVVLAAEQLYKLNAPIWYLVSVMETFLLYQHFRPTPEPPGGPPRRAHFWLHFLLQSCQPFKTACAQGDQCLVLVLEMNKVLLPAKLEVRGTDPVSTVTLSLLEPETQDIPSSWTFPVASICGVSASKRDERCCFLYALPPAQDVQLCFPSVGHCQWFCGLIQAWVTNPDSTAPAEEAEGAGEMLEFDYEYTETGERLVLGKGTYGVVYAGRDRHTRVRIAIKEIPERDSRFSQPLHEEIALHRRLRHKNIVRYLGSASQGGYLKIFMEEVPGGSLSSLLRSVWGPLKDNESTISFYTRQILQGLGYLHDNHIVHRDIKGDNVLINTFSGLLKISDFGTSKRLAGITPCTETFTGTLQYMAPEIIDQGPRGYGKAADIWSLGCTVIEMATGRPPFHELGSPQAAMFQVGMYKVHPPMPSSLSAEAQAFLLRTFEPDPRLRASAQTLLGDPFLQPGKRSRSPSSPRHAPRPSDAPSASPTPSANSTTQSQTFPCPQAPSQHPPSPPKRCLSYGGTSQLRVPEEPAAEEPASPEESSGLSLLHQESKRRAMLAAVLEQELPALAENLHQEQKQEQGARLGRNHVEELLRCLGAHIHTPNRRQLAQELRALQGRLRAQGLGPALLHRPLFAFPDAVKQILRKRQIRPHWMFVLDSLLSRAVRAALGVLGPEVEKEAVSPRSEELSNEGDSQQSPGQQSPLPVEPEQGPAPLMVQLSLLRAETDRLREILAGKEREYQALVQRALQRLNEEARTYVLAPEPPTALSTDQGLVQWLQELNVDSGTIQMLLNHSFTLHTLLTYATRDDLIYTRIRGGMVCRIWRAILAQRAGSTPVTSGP
UniProt Q9Y6R4, sequence (whole entry, looked up): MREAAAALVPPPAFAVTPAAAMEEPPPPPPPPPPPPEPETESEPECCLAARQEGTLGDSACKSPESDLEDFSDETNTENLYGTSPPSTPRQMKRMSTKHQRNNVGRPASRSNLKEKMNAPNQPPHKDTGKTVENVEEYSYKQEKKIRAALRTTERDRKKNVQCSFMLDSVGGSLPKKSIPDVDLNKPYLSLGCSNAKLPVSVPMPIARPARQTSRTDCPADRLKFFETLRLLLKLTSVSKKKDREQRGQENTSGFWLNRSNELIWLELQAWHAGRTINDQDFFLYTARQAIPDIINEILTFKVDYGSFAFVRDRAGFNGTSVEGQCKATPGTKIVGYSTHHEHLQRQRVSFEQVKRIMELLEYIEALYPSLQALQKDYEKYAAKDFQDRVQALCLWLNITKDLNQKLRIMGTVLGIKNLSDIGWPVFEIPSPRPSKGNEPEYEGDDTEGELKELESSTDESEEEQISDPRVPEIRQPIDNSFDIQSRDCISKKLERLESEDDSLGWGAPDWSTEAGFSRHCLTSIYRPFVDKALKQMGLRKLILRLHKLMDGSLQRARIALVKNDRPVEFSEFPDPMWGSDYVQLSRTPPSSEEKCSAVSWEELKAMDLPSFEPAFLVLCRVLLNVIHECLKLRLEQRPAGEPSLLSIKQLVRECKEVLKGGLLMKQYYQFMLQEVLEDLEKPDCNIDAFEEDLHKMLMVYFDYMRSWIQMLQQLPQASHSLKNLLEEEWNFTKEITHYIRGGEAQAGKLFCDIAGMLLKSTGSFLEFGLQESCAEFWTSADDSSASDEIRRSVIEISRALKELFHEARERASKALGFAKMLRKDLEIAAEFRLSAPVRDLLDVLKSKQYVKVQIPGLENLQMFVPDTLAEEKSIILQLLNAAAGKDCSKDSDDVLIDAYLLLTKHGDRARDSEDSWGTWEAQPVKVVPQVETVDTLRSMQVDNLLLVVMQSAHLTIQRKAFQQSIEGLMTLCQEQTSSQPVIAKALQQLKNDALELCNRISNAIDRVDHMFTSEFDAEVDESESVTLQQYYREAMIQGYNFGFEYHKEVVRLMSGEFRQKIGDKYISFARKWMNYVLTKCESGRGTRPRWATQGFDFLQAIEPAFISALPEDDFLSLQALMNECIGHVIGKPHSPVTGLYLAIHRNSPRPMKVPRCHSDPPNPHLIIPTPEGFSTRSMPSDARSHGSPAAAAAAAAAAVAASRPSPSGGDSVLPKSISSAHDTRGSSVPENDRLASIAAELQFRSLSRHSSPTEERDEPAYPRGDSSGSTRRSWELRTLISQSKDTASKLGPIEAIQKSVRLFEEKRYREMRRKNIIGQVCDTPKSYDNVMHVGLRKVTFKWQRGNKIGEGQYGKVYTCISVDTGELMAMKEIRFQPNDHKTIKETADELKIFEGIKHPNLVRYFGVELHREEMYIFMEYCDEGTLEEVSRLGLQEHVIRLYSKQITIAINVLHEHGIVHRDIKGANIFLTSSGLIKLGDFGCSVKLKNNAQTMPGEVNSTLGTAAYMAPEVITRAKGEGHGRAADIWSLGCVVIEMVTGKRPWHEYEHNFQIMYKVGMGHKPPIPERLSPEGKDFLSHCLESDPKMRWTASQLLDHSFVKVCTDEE
UniProt Q00526, sequence (whole entry, looked up): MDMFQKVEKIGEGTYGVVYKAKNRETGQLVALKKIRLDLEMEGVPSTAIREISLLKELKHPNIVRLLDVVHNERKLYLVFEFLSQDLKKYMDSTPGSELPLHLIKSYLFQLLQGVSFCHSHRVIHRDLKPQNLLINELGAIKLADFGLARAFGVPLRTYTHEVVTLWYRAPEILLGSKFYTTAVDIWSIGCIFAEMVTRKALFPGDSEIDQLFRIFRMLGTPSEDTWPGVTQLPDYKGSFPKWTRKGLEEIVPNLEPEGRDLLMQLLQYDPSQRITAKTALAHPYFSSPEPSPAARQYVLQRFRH

Study 1
Structure (SMILES): CC(C)(C)c1cnc(CSc2cnc(NC(=O)C3CCN(CCCCCSc4cccc5c4CN(C4CCC(=O)NC4=O)C5=O)CC3)s2)o1 (centres unmarked)
Species: NSG mouse, HuT78 xenograft
Dose: dose not given
subcutaneous, day 18 — tumour volume: 397 mm³ and 1030 mm³ and 1060 mm³ and 256 mm³ and 845 mm³.
It gave 0 mm³ for tumour volume (subcutaneous, day 0).
intraperitoneal, day 5 — tumour volume: 66 mm³ and 28.7 mm³ and 84.7 mm³ and 62.5 mm³.
intraperitoneal, day 10 — tumour volume: 41.6 mm³ and 52.6 mm³ and 10.2 mm³ and 66 mm³.
For intraperitoneal, day 14: tumour volume read 129 mm³ and 113 mm³ and 162 mm³ and 98.3 mm³.

Study 2
Structure (SMILES): COc1ccc2[nH]c3c4[nH]c5ccc(OC)cc5c4c4c(c3c2c1)C(=O)NC4=O
Effect on: binding
Concentration: 1 µM
The remaining binding was 93% (Serine/threonine-protein kinase/endoribonuclease IRE1 (ERN1, Homo sapiens, UniProt O75460)).
Ribosomal protein S6 kinase alpha-2, N-terminal kinase domain (RPS6KA2, Homo sapiens, UniProt Q15349); competition with immobilised ligand — remaining binding: 28%.
Cyclin-dependent kinase 3 (CDK3, Homo sapiens, UniProt Q00526); competition with immobilised ligand — remaining binding: 100%.
For Casein kinase II subunit alpha' (CSNK2A2, Homo sapiens, UniProt P19784): remaining binding read 56%.
For Mitogen-activated protein kinase kinase kinase 6 (MAP3K6, Homo sapiens, UniProt O95382): remaining binding read 86%.
Mitogen-activated protein kinase kinase kinase 19 (MAP3K19, Homo sapiens, UniProt Q56UN5); competition with immobilised ligand — remaining binding: 0%.
For Tyrosine-protein kinase ABL1, non-phosphorylated (ABL1, Homo sapiens, UniProt P00519); competition with immobilised ligand: remaining binding read 58%.
Mitogen-activated protein kinase kinase kinase 4 (MAP3K4, Homo sapiens, UniProt Q9Y6R4); competition with immobilised ligand — remaining binding: 100%.

Mixed results
P1: PafA, mature enzyme, eGFP fusion (Elizabethkingia meningoseptica, UniProt Q9KJX5); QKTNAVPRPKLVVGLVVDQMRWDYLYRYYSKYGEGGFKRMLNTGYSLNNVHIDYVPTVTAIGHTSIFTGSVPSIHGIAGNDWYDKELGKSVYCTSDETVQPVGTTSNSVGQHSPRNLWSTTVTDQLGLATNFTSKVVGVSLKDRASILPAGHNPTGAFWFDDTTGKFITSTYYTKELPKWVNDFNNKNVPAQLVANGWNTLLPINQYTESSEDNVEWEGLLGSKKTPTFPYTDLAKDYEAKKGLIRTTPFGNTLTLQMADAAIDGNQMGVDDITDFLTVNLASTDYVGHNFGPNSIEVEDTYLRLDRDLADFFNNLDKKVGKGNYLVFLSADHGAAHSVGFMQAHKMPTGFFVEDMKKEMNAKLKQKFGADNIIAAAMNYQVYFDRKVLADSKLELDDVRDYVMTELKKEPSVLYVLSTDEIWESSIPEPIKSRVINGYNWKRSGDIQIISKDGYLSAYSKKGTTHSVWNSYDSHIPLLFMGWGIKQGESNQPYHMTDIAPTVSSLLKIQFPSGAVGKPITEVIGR
`P1 I296V`: “oxyanion analog dissociation constant” 698 nM (vanadate, free oxyanion; microfluidic competitive inhibition; in vitro, cell-free expressed; not given, derived from inhibition constants, unchanged parent 676 nM; lower = stronger binding).
`COc1cc(C(=O)OCCCN2CCCN(CCCOC(=O)c3cc(OC)c(OC)c(OC)c3)CC2)cc(OC)c1OC`: “rotarod fall latency” 62 s and 72 s and 89 s and 69 s and 77 s and 79 s (naive mice, mixed sexes; intrathecal, 100 nmol, before dosing).
`COc1ccc(-c2c(Nc3ccccn3)[nH]c3c(C4=CCCCC4)c(-c4ccccc4)nn3c2=O)cc1`: “last measured concentration” 10500 ng/mL and 10200 ng/mL (human, plasma; oral, 200 mg twice daily, 24 h).
For `COc1cc(-c2cn(C3CCc4c(F)cccc4N(CC(F)(F)F)C3=O)nn2)ccc1-n1cnc(C)c1` (centres unmarked), the inhibition was 27.6% (5-hydroxytryptamine receptor 2C (HTR2C, Homo sapiens, UniProt P28335); ligand displacement; 10 µM).

Excerpt of the above (study 2):
For Casein kinase II subunit alpha' (CSNK2A2, Homo sapiens, UniProt P19784): remaining binding read 56%.
The remaining binding was 93% (Serine/threonine-protein kinase/endoribonuclease IRE1 (ERN1, Homo sapiens, UniProt O75460)).
